Measurements from different studies.
Numbered parts are unrelated; each lists some results of a single study. Positions count from the first letter of the parent shown.

Series 1
Target: CCNB3, cyclin fold, Cln2 fusion (human)
Method: yeast growth competition, sequencing
Matrix: yeast
Notes: weak parent motif
Reference: not given
Direction: higher = stronger binding
Starting sequence: FZR1 docking peptide (human); QDYERRLLRQIVI
| Change | normalised enrichment score |
| --- | --- |
| QDYEKRLFRQIVI [R5K L8F] | 0.207 |
| QDYERRLLRQIVA [I13A] | -0.224 |
| QDYERRLLAQIVI [R9A] | -0.333 |
| QDYEARLLRQIVI [R5A] | 0.467 |
| QDYERRLARQIVI [L8A] | 0.145 |
| QDYERRLLRQIAI [V12A] | 0.477 |
| QDAERRLLRQIVI [Y3A] | 0.16 |
| QDYERRLLRAIVI [Q10A] | 0.511 |
| QDYEARALRQIVI [R5A L7A] | 0.0705 |
| QDYEKRLLRQIVI [R5K] | 0.179 |

Series 2
Target: Histone acetyltransferase KAT6A, both winged helices, GST fusion (KAT6A, Homo sapiens, UniProt Q92794, residues 1-181)
Method: protein binding microarray
Molecule type: double-stranded DNA, one strand shown
Matrix: in vitro
Tested at: not given
Notes: 8-mer, flanks averaged, mean of 2 arrays, mostly near background
Reference: not given
Direction: higher = stronger binding
Residues (chain): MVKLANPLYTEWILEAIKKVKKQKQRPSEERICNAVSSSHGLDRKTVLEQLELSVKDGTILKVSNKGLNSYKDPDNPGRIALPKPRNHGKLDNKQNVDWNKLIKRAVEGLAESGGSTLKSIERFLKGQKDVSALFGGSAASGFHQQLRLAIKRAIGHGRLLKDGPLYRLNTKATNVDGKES
| Sequence | E-score |
| --- | --- |
| CGCAAGAG | 0.164 |
| AGTCAATA | -0.0137 |
| CTACGCTC | 0.0748 |
| GGAAGAGA | -0.0618 |
| GAACCGAA | 0.0624 |
| CTCTTCGA | 0.0365 |
| CTACCGTA | 0.114 |
| CCATTTTA | 0.0522 |
| CAAGCGCA | 0.193 |
| GGAAGTGA | 0.0663 |
| ATGGTTGG | 0.00616 |
| CTACACGA | -0.069 |
| AGGTGACG | -0.0369 |
| GTGCAATA | -0.152 |
| CGTTAACC | 0.103 |
| CCGCTTGA | 0.276 |
| CCGCCATA | 0.17 |
| CTTAAGGC | -0.0301 |
| AGCCTAGC | -0.00789 |

Series 3
Target: PABPC1L2, full length, GST fusion (mouse, UniProt A0ABA7IW68)
Method: RNAcompete
Molecule type: RNA
Matrix: in vitro
Tested at: 20 nM
Notes: 7-mer, probes averaged, single round
Reference: mean of 7-mers
Direction: higher = stronger binding
Residues (chain): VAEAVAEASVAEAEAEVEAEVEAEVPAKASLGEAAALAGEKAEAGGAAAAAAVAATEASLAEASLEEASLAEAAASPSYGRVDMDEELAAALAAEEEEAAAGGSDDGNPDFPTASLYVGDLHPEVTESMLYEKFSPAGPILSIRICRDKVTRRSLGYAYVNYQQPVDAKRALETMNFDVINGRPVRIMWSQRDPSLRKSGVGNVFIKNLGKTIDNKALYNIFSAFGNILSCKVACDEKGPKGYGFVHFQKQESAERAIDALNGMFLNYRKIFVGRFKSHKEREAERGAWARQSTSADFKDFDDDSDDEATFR
| Sequence | 7-mer Z-score |
| --- | --- |
| AUUCGCA | -0.248 |
| UCGAGCC | -0.287 |
| AAGGGGU | 0.472 |
| UUCUUGU | -0.431 |
| CGGGGGG | 0.263 |
| UCACUCG | -0.26 |
| UGAAGCA | 0.155 |
| GGACCAC | 0.187 |
| CCACUGC | -0.284 |
| AGACACA | -0.0174 |
| AAUGGGC | 0.568 |
| CAGUAGC | -0.17 |
| CCUGCUU | -0.414 |
| AACGAUG | 0.196 |
| ACGAGGU | 0.1 |
| CCGCUUA | -0.257 |
| GUUGAAU | -0.164 |
| GUCACAC | -0.0899 |
| AAUUGCU | 0.0569 |

Series 4
Target: RNA binding protein fox-1 homolog 2, RRM domain, GST-SBP tag (RBFOX2, Homo sapiens, UniProt O43251-10, residues 100-194)
Method: RNA Bind-n-Seq
Molecule type: RNA
Matrix: in vitro
Tested at: 365 nM
Notes: natural RNA segment, single round, ends assumed
Reference: no-protein control
Direction: higher = stronger binding
Shared flanks, not repeated: GGGAGUUCUACAGUCCGACGAUC … UGGAAUUCUCGGGUGCCAA
Target sequence (chain): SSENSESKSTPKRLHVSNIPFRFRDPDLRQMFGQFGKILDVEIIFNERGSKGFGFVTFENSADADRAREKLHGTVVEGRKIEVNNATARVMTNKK
| Sequence | RBNS enrichment (R) |
| --- | --- |
| UUUAUAAUCAUAUCCAGUAAACGGCCUUGUGUCAUAGUAAGAUAAAAUGGUAUCUUACUGACUCUGUUUACUUAUGUGUACAAUUCUGGAAAAUAAAUUUUUUUAUUCUA | 0.589 |
| UGGCCUUUCAUGACCCUGGCUUACUGUGUAAAUGCUGUGCCCUUGGGUACUGGAUAGGAACACUGAGAAAGCAAAGCCAAUAGCCGUGAGGACGAGGAAGUUUCUGCCAC | 0.261 |
| AAGCGAAUGGGUCAUUUCUAAAGAGACCAGGGAGCCCACUCCUCAUGGGCUCUCCGUGGUGAAGAACAAAGGGUACCCCAAUGGCCUCUCACCAUCACUGUCCUCCAGGG | 0.284 |
| UCUCCCUGUGUUCUGGGCUGGGGCCACCUUUGUGCAGCUUCGAGGACAGGAAAGGCCCCAAUCUUGCCCACUGGCCGCUGAGCGCCCCCGAGCCCUGACUCCUGGACUCC | 0.343 |
| CCCCCUCCUGCAACCAGGCUACCUGAAGACCUUUAUGGAGGUGAAAGGGAAACUAAAUUGUUCCCUGGAUUCCAGGAGAUGGUCGGCACAGAUGGUCGUCACGUGGGACC | 0.286 |
| CUCUUUUUUCCUUCCUCUCCUACAUCUCCCUUUUCCCCCGAUCCAAGUUGUAGAUGGAAUAGAAGCCCUUGUUGCUGUAGAUGUGCGUGCAGUCUGGCAGCCUUAAGCCC | 2.49 |
| GAAACGGCACGACCCCUUCUCAAGCUGGCUCACUCAGACACAUUGGGACAAACCCUGGACAGCCAUGCCAGAGAGAGGCCUUUGACCGGCCCCAGAGCUAAAAGCACCAG | 0.448 |
| CUGCUGACUUGACACGUGACAGUGAAGUAAUGGAAGUGGCCAGAUGUCAGGAAACUGAGAGUAAUGAAGAACAGAGUAUUAGCCCGGAGAAAAGAGAGAUGGGAACCGAC | 1.31 |
| GCUGUAUCAUGAGAUUUUGAGGGGACCGAGCCCUGUUACAUGGAUGUGAACAGUGAGGAUCAGAGGUUUUAUCAGAACACAUUCUUUUUUUCUACCAACUCUCCAGAGCG | 0.955 |
| AGUCUUUAUGAUAACCUAAUUUUUAAAAAUGAAUUUGACUAACUUAAGUGCAAAACAUGUAAAUUUGGUUCCCAGAGUGGGCCAAUCUCUCUGUUCUUGUUAUCUUAGCC | 0.578 |
| AGCCUUUAUUCGUCAACGGCCUCUGCUCAGCCAGGCCCUUCCAGACAAAAGGCACUGAGGAACUUGCACCCCUUCCAGGGAGGGUGUCCAAGUAGCACCGUUCCUGCCCA | 0.278 |
| AAUUGAGCCUCUCUGAUGAUGGAGAUGAAGUGAAGGUCUGAGGGAGCGGGCCCUGGGGCGAGGCCAUCUCUGCCUGCCUCCCUAGCAGGCGCCAGCGGUGGAGGCUGAGU | 0.674 |

Series 5
Target: Sal-like protein 4, full length isoform B (SALL4, Homo sapiens, UniProt Q9UJQ4-2, residues 1-616)
Method: universal PBM
Molecule type: double-stranded DNA, one strand shown
Matrix: in vitro
Tested at: not given
Notes: 8-mer, flanks averaged, mean of replicates
Direction: higher = stronger binding
Residues (chain): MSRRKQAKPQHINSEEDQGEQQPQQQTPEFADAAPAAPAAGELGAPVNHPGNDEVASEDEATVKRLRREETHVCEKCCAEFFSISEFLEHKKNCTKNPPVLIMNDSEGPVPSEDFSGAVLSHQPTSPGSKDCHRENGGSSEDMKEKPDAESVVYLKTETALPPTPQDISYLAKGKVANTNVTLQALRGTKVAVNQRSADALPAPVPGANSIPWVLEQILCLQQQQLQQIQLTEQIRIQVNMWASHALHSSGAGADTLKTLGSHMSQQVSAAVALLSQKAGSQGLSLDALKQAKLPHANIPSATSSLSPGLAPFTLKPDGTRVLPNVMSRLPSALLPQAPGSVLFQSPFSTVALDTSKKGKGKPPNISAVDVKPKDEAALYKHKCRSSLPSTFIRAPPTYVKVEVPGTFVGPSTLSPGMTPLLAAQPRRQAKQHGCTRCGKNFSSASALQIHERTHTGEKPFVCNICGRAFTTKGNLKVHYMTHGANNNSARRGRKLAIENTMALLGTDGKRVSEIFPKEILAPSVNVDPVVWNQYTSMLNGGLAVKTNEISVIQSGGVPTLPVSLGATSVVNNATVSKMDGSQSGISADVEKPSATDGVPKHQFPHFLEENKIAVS
| Sequence | E-score |
| --- | --- |
| ACTCTTAG | -0.0498 |
| AAGCTTGT | 0.0868 |
| AGCTGAGC | -0.314 |
| AGCCATGA | -0.0333 |
| CATCCGAA | 0.0318 |
| CCAAGAGA | -0.0673 |
| CAAGAGTG | -0.047 |
| TCGAGCCA | -0.0961 |
| AGGCGTTA | 0.0545 |
| GAAACGAC | -0.0838 |
| AATCGTCC | -0.0529 |
| CAGCGATG | -0.163 |
| GGCTGCGA | -0.145 |
| GGGGACCA | -0.307 |
| CATACTAG | 0.237 |
| CGGGATAG | -0.102 |

Series 6
Target: CREB3L3, bZIP domain (human)
Method: DHFR protein complementation
Matrix: yeast
Notes: single substitutions, most at no-binding floor
Reference: wild-type JUN-FOS pair
Direction: higher = stronger binding
Starting sequence: JUN, bZIP domain (human); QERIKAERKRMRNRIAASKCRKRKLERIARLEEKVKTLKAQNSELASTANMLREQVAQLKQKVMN; partner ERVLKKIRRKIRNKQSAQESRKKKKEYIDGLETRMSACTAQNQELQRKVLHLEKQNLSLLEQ
| Change | binding fitness |
| --- | --- |
| E32V | -1.38 natural log |
| L52W | -1.43 natural log |
| L59G | -1.44 natural log |
| L31S | -1.5 natural log |
| L52C | -1.58 natural log |
| L45S | -1.42 natural log |
| T37R | -1.36 natural log |
| Q41I | -1.44 natural log |
| M51V | -1.56 natural log |
| Q41E | -1.36 natural log |
| T48E | -1.33 natural log |
| A46Q | -1.13 natural log |
| T48N | -1.53 natural log |
| Q55L | -1.5 natural log |
| K34C | -1.45 natural log |
| S43T | -1.19 natural log |
| I28V | -1.38 natural log |
| L45K | -1.54 natural log |
| L38K | -1.51 natural log |
| R30V | -1.56 natural log |
| V35G | -1.49 natural log |
| L52M | -1.54 natural log |
| Q55T | -1.46 natural log |
| K34Q | -1.49 natural log |
| N42D | -1.51 natural log |

Series 7
Target: ABI1, truncated, D143A, DHFR fusion (Arabidopsis thaliana)
Method: DHFR PCA, deep sequencing
Matrix: yeast
Notes: methotrexate growth selection, single substitutions
With: (+)-ABA 200 µM
Reference: wild-type fitted maximum
Direction: higher = stronger binding
Starting sequence: PYL1, truncated, DHFR fusion (Arabidopsis thaliana); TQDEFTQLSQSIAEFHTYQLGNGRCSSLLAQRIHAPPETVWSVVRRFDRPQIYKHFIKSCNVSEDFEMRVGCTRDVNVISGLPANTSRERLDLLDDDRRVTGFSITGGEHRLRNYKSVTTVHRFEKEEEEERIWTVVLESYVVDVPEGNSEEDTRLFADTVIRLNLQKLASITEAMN
| Change | relative binding score |
| --- | --- |
| T101W | 40.3% |
| L28S | 62.2% |
| Q19F | 87.9% |
| S104H | 68.9% |
| D159S | 78.9% |
| V142L | 85% |
| I105F | -6.26% |
| V76N | 66.2% |
| E64R | 98% |
| V100D | -12.1% |
| S9L | 78.5% |
| L29A | 69.3% |
| R123P | 104% |
| W134N | 97.1% |
| E128L | 99.2% |
| V143H | 2.41% |
| C72K | 85.3% |
| N85Y | 100% |
| E147P | 95.6% |
| Y53N | 32.8% |
| D153T | 46.2% |
| P37R | 51.7% |
| E89G | 9.71% |
| E139T | 98.7% |
